Measurements of several laboratories.
Parts stem from different laboratories: compare values within a part only. Substitutions count along the parent as printed.

Block 1
Target: RNA binding protein fox-1 homolog 2, RRM domain, GST-SBP tag (RBFOX2, Homo sapiens, UniProt O43251-10, residues 100-194)
Method: RNA Bind-n-Seq
Molecule type: RNA
Matrix: in vitro
Tested at: 365 nM
Notes: natural RNA segment, single round, ends assumed
Baseline: no-protein control
Reading: higher = stronger binding
Constant ends, left off below: GGGAGUUCUACAGUCCGACGAUC … UGGAAUUCUCGGGUGCCAA
Construct (chain): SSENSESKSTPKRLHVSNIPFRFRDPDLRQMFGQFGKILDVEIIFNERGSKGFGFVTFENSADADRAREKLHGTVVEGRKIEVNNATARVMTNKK
Sequence | RBNS enrichment (R)
GCAGGCAGACGAGGCCUUUGCUUUACAGCACUGUAUGUGUUGCACGAUGGAUCCGUGACAGCACUUUCCUGUUGCACUGAAACUCUUGGCCAUGUAGAGGAAAAGAUAUG | 1.24
AUCACUUUUACAGAAAACAAGGUCCAGUAAUAGCAAGUCUUAGUACAUCCUCACUUUUAUUAUAAAUGGGUGUUUUUUCAUAAUUUUUACUGACGCUCAGUAACCAUGCA | 1.6
GGAUGCAUGGGUGCCCGGAUGCAUGGGUGCAUGCUGGUCUCAAGUCACAAGCUGCCUCUAUUUCAGUUCGCUCACCUCUUUGCCCUGUCCCCAGUAUUGAUCCCCCACCC | 1.86
GGCAUUUUUAAAGCAUUUCCCAACAGAAGAGCAACUAGCAAUAAAAUCCAGCUUUUGUUUGCCAGCCAAAUAGGGAGAGAUGCUCAAAGAAGCUUCAAGAAAGCACUGGG | 0.434
UUACUCUUAGAACAGAUACAACUUUAAAGGGUGUCACAACCAAAGGUGGAGUGGAGUGUGGCAUGCAGGCUCUGUGGGGGCGCCAGUGCUCAGUUAGUUGUUGGUUAUUU | 2.12
UAAAUUUGCAAUUAUUCUAAUUUGAUAUAGAGAGAAACUGACCUAUUUAACAAAUGGACUCUCUUAAUUCUACUGGACCCAGGCCUUGAACUUUCUGGUUUCUGUCUCUG | 0.437
GCCCUGUUCUUAAAUUACUAGUGAUUCUAGUAGUGACAUCGUUAGUAAUUUAACUCUAUAAUUGCAGUUACAGCAUUUGGUUUUUGCCAUCUAAGAUUUUCUUGGUUUUA | 0.454
CGGAGGGUACCUCCUGUUCCCUGUCUGAGCAUCCUGCAUGGAAGUCAAAGGAAAUCCCUUUCUUGGUGACGACUUAAAUCUGGGUUCCCUCAGACAUUGGGUUGCACCCC | 0.349
UCCUGAGAUAACAUUUGCAUUGUCGACCUCAGUUGACUGUUUUUACAAUAAAAAUAUUUUGCAGCUUUUUCCUGUGUUUUUAUAUUGUAAUUGAAUAUUUUCUUCCUUUU | 0.738
GAGUAGAAAUAGUCUGCUGCAAAUCCUAAACUUAAGAUCCCUGCGCUAGGUUGCUAGAGACUGCGGUUAGUGCAGAACAGAGGUAAGCCUAAGUCCCAUCCUCAUGAACU | 0.256
AAAAAAUAUAUAUAUAUAUAUAUAGCUGACUGGAAGAGAUUAAUUUCUUCCCCCAACUUCUUGCAUGUUGAAGAUAUUUGAGCUAUUUUUCAUCUAAAAGAGUAAGGUAU | 12.7
GGCUCACCUUGAUGGAGGGACUGGGGUGGGUGGGACUACCGCCCCGCCCACCUGUCUGCACUCCUGUCACUUGUAGGCCUGGCUGACUUACAGAUUUUUCCUUCCCCAGC | 0.239

Block 2
Target: Interferon regulatory factor 5, full length, phosphomimetic (IRF5, Homo sapiens, UniProt Q13568-2, residues 1-514, S451D/S453D/S456D/S462D)
Method: protein-binding microarray
Molecule type: double-stranded DNA, one strand shown
Matrix: in vitro
Tested at: 940 nM top
Notes: 60-bp whole probe
Added: salmon DNA 0.4 mg/ml
Baseline: random background probes
Reading: higher = stronger binding
Constant ends, left off below: GCCTAGCAC … GTCTTGATTCGCTTGACGCTGCTG
Sequence | fitted relative affinity [z-score]
GACAAACTGGGGTATCGAGACGTGCTA | 0.92
TTAGGTGTCGGGTTTCGGTTAGTGCTA | 5.41
GACGTTCTCAGTATCGAGACGTGCTAG | 2.79
TTAGGACTGGGGACTGGGTAAGTGCTA | -0.529
GACGGTTTCGGACTGGGTACGTGCTAG | 6.32
TTAGAACTGAGACTGGATTAGTGCTAG | -0.157
TCATATGTCATTTACATACTGTGCTAG | 0.139
TTGCATCGTAAGCAAAAATGGTGCTAG | -0.345
GACGATGCCAGTTTCGAGACGTGCTAG | 3.62
GACGGTTTCGACACTGGGAACGTGCTA | 6.96
TTAGATAACGGGTTTCGATTAGTGCTA | 5.22
TTAGAACTGAGTATCGAGTAGTGCTAG | 1.61
CTAGGTCTCCTTATCCTTTAGTGCTAG | 0.474
GACCGTTTCGACTTTCGGGACGTGCTA | 3.67
TTCGGACTGCTTATCCTTTAGTGCTAG | -0.134
TTTTTTTTGCAAGCTAAAAAAGTGCTA | -0.328
CTATAAAGCATCAGGAAAGCGTGCTAG | -0.354
GAAACACTAATTTTTACTTTGTGCTAG | 0.834
TTAGGTATCCTTTTCCTTTGGTGCTAG | 0.296
TTAGATTTCGTGTTTCGATTAGTGCTA | 3.14
TTCGGTTTCGGTCTCGGTTAGTGCTAG | 14.2
TCAAAGCTTCCTCTCTGACTGTGCTAG | -0.211
TTAGATACCAGTTTCGATTAGTGCTAG | 7.51
TTAGATTTCGGGTTCCGATTAGTGCTA | 1.31
TCCATCATTGCTTTCTCTTTGTGCTAG | 1.83

Block 3
Target: ATP-dependent RNA helicase DDX3X, helicase core (DDX3X, Homo sapiens, UniProt O00571, residues 132-607)
Sequence of UniProt O00571 (132-607, looked up): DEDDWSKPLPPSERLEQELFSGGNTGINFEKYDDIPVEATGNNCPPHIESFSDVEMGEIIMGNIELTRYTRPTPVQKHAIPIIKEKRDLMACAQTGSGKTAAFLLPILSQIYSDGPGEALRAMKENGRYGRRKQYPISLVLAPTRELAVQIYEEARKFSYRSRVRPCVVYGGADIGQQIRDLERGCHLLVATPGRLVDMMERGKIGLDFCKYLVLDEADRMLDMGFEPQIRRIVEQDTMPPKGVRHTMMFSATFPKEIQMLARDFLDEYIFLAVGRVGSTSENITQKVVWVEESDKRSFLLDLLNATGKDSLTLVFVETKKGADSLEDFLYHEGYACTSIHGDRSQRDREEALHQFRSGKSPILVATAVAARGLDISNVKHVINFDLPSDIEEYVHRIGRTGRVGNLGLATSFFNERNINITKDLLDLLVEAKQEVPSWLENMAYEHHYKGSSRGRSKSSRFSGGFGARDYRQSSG
Method: RNA Bind-n-Seq
Molecule type: RNA
Matrix: in vitro
Tested at: 90 pmol
Notes: 4-mer, random 30-nt RNA, single round
Added: 3 µM DMDA-PatA, 2 mM ADP, 2 mM phosphate
Baseline: input library
Reading: higher = stronger binding
Sequence | 4-mer enrichment [fold]
UCCA | 0.993
ACGG | 0.935
AGUC | 0.965
UAAA | 1.11
AUCG | 0.882
CGCA | 1.02
GCAA | 1.01
CGGU | 0.8
UCUU | 0.81
CAUA | 0.973
ACUG | 0.789
UAGU | 0.987
UUGA | 0.984
CUCU | 0.804
UGCU | 0.755
GAAU | 1.13
AAAG | 1.17
GCCC | 1.02
GGCU | 0.808
GAAG | 1.17
AUCA | 0.954
CGUA | 0.997
GCGC | 1.1
CCUC | 0.994
CCUU | 0.831

Block 4
Target: CCNB2, cyclin fold, Cln2 fusion (human)
Method: yeast growth competition, sequencing
Matrix: yeast
Notes: weak parent motif
Baseline: not given
Reading: higher = stronger binding
Parent: ASZ1 docking peptide (human); GFGFLLFICKLTF; partner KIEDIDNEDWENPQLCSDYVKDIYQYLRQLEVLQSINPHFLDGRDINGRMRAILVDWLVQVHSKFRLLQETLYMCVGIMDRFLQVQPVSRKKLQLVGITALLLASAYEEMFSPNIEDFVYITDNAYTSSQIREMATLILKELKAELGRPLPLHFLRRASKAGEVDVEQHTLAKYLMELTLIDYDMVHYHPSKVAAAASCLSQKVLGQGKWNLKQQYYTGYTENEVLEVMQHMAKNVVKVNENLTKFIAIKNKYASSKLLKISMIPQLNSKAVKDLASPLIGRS
Variant | normalised enrichment score
GFGFALFICKLTF [L5A] | 0.284
GAGFLLFICKLTF [F2A] | 0.437
AFGFLLFICKLTF [G1A] | 0.633
GFGALLFICKLTF [F4A] | 0.297
GFGFLLFACKLTF [I8A] | 0.269
GFAFLLFICKLTF [G3A] | 0.808
GFGFLLFIAKLTF [C9A] | 0.649

Block 5
Target: Runt-related transcription factor 3, Runt domain (RUNX3, Homo sapiens, UniProt Q13761, residues 53-186)
Sequence of UniProt Q13761 (53-186, looked up): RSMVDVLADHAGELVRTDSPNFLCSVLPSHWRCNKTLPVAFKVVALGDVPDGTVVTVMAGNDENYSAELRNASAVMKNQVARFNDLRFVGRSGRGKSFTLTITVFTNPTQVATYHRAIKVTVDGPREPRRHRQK
Method: protein-binding microarray
Molecule type: hairpin DNA
Matrix: in vitro
Tested at: not given
Notes: whole hairpin DNA, median over replicate spots
Baseline: not given
Reading: higher = stronger binding
Sequence | median fluorescence
GAGGCCAGTTGCGGTTGGCCTCCTGGCCAACCGCAACTGGCCTCACACTC | 8350 a.u.
GAGGCCTGTTGTGATTGGCCTCCTGGCCAATCACAACAGGCCTCACACTC | 4290 a.u.
CTCAGTTCTCTGGGCTGGACTCCTGTCCAGCCCAGAGAACTGAGACACTC (5mC at 10) | 3810 a.u.
GAGGCCTGTTGTGGTCGGCCTCCTGGCCGACCACAACAGGCCTCACACTC (5mC at 16 28) | 5600 a.u.
GAGGCCGAACCGCAACAGCCTCCTGGCTGTTGCGGTTCGGCCTCACACTC | 7200 a.u.
GAGGCCCACGCGCAACAGCCTCCTGGCTGTTGCGCGTGGGCCTCACACTC (5mC at 35) | 5150 a.u.
GAGGCCCAAGCGCAACAGCCTCCTGGCTGTTGCGCTTGGGCCTCACACTC | 5200 a.u.
GAGGCCTGTTGTCGTTGGCCTCCTGGCCAACGACAACAGGCCTCACACTC (5mC at 13 31) | 4400 a.u.
GAGGCCTGTTATGGTTGGCCTCCTGGCCAACCATAACAGGCCTCACACTC | 4130 a.u.
GAGGCCTGTTGCGGTTGGCCTCCTGGCCAACCGCAACAGGCCTCACACTC (5mC at 37) | 7730 a.u.
GAGGCCGGTTGCGGTTGGCCTCCTGGCCAACCGCAACCGGCCTCACACTC (5mC at 38) | 10000 a.u.
GAGGCCTGTTGCGGATGGCCTCCTGGCCATCCGCAACAGGCCTCACACTC | 4950 a.u.
GAGGCCTGGCGCGGTTGGCCTCCTGGCCAACCGCGCCAGGCCTCACACTC (5mC at 36) | 6290 a.u.
GAGGCCTGTCGCGGTTCGCCTCCTGGCGAACCGCGACAGGCCTCACACTC (5mC at 17) | 5470 a.u.
GAGGCCTGTCGCGGATGGCCTCCTGGCCATCCGCGACAGGCCTCACACTC | 4920 a.u.
CTCAGTTCTGTGCGCTGGACTCCTGTCCAGCGCACAGAACTGAGACACTC (5mC at 13) | 4210 a.u.
GAGGCCTGTCGCGGTTGGCCTCCTGGCCAACCGCGACAGGCCTCACACTC (5mC at 10 12 32) | 5030 a.u.
GAGGCCCAACGGCAACAGCCTCCTGGCTGTTGCCGTTGGGCCTCACACTC | 4990 a.u.
GAGGCCTGTCGCCGTTGGCCTCCTGGCCAACGGCGACAGGCCTCACACTC | 5200 a.u.
GAGGCCCAACCGCCGCAGCCTCCTGGCTGCGGCGGTTGGGCCTCACACTC (5mC at 30) | 6850 a.u.
